Measurements of several laboratories.
Each numbered part is a random draw from the data of one study; scales do not carry over between parts.
UniProt P07948, sequence (whole entry, looked up): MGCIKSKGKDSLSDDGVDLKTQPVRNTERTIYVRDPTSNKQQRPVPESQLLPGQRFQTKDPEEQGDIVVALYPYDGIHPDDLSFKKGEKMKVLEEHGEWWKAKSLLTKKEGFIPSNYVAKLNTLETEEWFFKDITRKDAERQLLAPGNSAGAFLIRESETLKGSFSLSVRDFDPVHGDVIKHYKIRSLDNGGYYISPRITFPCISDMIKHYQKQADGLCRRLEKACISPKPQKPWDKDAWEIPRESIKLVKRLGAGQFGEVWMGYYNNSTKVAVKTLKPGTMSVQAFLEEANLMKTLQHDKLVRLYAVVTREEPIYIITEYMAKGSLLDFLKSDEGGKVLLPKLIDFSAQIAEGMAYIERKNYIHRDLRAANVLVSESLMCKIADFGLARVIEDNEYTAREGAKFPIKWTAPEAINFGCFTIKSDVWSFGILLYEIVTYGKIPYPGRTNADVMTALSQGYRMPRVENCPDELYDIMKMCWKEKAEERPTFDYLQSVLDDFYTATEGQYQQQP
UniProt Q6XUX3, sequence (whole entry, looked up): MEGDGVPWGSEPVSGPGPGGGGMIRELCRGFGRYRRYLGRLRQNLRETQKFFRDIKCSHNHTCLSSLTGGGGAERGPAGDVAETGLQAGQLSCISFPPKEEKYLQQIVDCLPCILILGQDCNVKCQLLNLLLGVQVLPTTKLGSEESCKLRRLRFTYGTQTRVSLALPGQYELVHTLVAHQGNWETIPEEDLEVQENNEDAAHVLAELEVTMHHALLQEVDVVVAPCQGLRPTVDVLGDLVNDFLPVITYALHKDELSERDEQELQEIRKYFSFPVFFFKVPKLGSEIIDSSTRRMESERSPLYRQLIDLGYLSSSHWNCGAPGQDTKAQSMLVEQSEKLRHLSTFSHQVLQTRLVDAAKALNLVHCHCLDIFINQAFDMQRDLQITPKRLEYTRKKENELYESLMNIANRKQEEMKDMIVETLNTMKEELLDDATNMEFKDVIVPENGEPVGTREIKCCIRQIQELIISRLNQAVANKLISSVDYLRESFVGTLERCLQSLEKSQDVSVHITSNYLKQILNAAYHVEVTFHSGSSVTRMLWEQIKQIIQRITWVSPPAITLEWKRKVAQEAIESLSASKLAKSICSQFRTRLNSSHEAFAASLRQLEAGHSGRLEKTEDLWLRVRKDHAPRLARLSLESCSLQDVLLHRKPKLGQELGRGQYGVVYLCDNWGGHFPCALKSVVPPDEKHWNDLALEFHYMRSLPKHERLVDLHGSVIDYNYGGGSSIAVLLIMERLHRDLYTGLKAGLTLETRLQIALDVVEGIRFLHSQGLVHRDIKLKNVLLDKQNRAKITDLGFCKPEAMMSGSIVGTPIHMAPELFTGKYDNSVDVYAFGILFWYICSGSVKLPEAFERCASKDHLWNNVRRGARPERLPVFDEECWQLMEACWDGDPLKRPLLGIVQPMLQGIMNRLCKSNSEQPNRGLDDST
UniProt Q9BUB5, sequence (whole entry, looked up): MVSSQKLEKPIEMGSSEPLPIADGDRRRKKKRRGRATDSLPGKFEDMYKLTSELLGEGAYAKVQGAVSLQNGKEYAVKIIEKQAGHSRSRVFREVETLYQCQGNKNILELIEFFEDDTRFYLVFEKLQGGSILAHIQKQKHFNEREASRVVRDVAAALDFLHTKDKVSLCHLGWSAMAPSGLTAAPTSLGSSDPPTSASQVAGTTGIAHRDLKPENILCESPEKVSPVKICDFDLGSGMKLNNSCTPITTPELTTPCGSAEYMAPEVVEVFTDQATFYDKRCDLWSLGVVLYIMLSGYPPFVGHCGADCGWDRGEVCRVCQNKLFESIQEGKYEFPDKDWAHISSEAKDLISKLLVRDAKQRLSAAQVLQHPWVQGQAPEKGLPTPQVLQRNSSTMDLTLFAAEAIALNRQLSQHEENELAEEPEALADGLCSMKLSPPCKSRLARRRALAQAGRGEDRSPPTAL
UniProt P41743, sequence (whole entry, looked up): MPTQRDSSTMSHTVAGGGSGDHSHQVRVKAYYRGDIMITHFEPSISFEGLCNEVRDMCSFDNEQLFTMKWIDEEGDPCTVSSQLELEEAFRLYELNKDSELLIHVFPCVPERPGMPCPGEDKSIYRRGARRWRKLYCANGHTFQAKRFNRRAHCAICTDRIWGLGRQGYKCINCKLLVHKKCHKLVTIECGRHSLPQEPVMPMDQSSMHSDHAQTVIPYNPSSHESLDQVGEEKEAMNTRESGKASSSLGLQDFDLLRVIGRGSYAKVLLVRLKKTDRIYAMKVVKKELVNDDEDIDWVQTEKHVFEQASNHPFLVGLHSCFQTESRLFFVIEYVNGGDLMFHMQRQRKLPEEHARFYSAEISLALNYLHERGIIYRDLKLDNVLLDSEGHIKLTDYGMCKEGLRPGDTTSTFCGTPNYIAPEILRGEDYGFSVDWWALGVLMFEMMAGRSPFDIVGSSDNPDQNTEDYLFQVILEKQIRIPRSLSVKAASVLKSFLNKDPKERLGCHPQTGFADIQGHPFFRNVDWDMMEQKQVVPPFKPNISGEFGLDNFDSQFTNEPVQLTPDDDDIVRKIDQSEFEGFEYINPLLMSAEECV
UniProt Q13554, sequence (whole entry, looked up): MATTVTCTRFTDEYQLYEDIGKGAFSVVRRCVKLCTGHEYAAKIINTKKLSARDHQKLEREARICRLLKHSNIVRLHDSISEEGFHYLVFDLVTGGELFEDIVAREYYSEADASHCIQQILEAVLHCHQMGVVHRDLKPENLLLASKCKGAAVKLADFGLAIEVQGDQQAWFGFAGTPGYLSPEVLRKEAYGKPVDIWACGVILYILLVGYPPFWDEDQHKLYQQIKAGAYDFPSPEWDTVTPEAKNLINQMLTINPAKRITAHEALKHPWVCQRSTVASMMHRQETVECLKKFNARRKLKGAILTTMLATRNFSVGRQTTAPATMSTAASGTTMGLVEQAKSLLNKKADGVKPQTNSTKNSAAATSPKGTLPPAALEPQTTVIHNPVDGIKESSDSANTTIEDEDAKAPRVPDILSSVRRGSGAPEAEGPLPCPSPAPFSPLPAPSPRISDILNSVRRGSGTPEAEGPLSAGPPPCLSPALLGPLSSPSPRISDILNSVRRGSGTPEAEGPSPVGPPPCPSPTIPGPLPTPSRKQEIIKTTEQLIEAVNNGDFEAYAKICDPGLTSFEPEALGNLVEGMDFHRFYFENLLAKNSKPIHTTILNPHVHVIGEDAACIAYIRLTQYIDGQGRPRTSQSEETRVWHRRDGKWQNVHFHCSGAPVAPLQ

Set 1
SMILES: O=C1NC(=O)/C(=C/c2ccc3nccnc3c2)S1
Read-out: enzyme activity
Mode: inhibitor
Tested at: 0.5 µM
Baseline: control
The remaining activity was 89.2% (Casein kinase I isoform alpha (CSNK1A1, Homo sapiens, UniProt P48729)).
It gave 115% for remaining activity (Serine/threonine-protein kinase WNK2 (WNK2, Homo sapiens, UniProt Q9Y3S1)).
The remaining activity was 87.7% (Cyclin-dependent kinase 9, with cyclin T1 (CDK9, Homo sapiens, UniProt P50750)).
It gave 91.2% for remaining activity (Dual specificity mitogen-activated protein kinase kinase 6 (MAP2K6, Homo sapiens, UniProt P52564)).
Mitogen-activated protein kinase kinase kinase 10 (MAP3K10, Homo sapiens, UniProt Q02779) — remaining activity: 94.2%.
For Mast/stem cell growth factor receptor Kit (KIT, Homo sapiens, UniProt P10721): remaining activity read 87.5%.
For Protein kinase C delta type (PRKCD, Homo sapiens, UniProt Q05655): remaining activity read 94.4%.
It gave 98.3% for remaining activity (cGMP-dependent protein kinase 1 (PRKG1, Homo sapiens, UniProt Q13976)).
For Mitogen-activated protein kinase 12 (MAPK12, Homo sapiens, UniProt P53778): remaining activity read 96.6%.
For Interleukin-1 receptor-associated kinase 4 (IRAK4, Homo sapiens, UniProt Q9NWZ3): remaining activity read 99.9%.
The remaining activity was 99.6% (Tyrosine-protein kinase Lyn (LYN, Homo sapiens, UniProt P07948)).
The remaining activity was 3.08% (Casein kinase II subunit alpha (CSNK2A1, Homo sapiens, UniProt P68400)).
For Serine/threonine-protein kinase PLK2 (PLK2, Homo sapiens, UniProt Q9NYY3): remaining activity read 95.7%.
Serine/threonine-protein kinase Chk1 (CHEK1, Homo sapiens, UniProt O14757) — remaining activity: 99.4%.
MAP kinase-interacting serine/threonine-protein kinase 2 (MKNK2, Homo sapiens, UniProt Q9HBH9) — remaining activity: 98.2%.
For Mitogen-activated protein kinase 13 (MAPK13, Homo sapiens, UniProt O15264): remaining activity read 99.1%.
The remaining activity was 86.1% (Mitogen-activated protein kinase kinase kinase kinase 2 (MAP4K2, Homo sapiens, UniProt Q12851)).
It gave 104% for remaining activity (RAC-gamma serine/threonine-protein kinase (AKT3, Homo sapiens, UniProt Q9Y243)).
For Leucine-rich repeat serine/threonine-protein kinase 2 (LRRK2, Homo sapiens, UniProt Q5S007): remaining activity read 96%.
It gave 99.5% for remaining activity (Ephrin type-A receptor 5 (EPHA5, Homo sapiens, UniProt P54756)).
It gave 98.6% for remaining activity (Protein kinase C iota type (PRKCI, Homo sapiens, UniProt P41743)).
It gave 93.1% for remaining activity (Serine/threonine-protein kinase Nek4 (NEK4, Homo sapiens, UniProt P51957)).
The remaining activity was 99.6% (Serine/threonine-protein kinase 38 (STK38, Homo sapiens, UniProt Q15208)).
For Tyrosine-protein kinase BTK (BTK, Homo sapiens, UniProt Q06187): remaining activity read 104%.

Set 2
Target: Calcium/calmodulin-dependent protein kinase type II subunit alpha (CAMK2A, Homo sapiens, UniProt Q9UQM7)
UniProt Q9UQM7, sequence (whole entry, looked up): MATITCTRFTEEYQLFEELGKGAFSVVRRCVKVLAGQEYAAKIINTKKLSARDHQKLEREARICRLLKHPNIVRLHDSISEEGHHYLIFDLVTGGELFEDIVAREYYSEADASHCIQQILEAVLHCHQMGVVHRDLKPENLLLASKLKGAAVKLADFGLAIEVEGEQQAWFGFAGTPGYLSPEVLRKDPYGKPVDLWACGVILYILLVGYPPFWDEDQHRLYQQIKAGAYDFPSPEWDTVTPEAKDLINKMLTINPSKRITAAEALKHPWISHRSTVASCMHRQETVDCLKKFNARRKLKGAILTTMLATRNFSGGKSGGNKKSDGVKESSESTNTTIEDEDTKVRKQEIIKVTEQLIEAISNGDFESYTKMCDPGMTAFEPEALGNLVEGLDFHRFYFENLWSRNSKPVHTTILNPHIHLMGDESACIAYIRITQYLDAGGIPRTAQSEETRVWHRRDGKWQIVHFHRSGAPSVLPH
Read-out: enzyme activity
Mode: inhibitor
Tested at: 10 µM
With `CSCC[C@H](NC(=O)[C@H](CC(C)C)NC(=O)CNC(=O)[C@H](Cc1ccccc1)NC(=O)[C@H](Cc1ccccc1)NC(=O)[C@H](CCC(N)=O)NC(=O)[C@H](CCC(N)=O)NC(=O)[C@@H]1CCCN1C(=O)[C@H](CCCCN)NC(=O)[C@@H]1CCCN1C(=O)[C@@H](N)CCCN=C(N)N)C(N)=O` the inhibition was -43%.
`C[N+]1(C)CCC(OC(=O)C(O)(c2ccccc2)C2CCCC2)C1` (centres unmarked) gave an inhibition of 2%.
For `C[S+]([O-])CC[C@H](N)C(=O)O` (some centres unmarked), the inhibition was 0.16%.
The inhibition of `CN(C)CCOC(=O)C(c1ccccc1)C1(O)CCCC1` (centres unmarked) is reported as 5%.
With `O=C(CCCCCCCCc1ccc(O)cc1)c1c(O)cccc1O` the inhibition was 2%.
The inhibition of `CC(C)c1ccc(C=O)cc1` is reported as -10%.
`Oc1nc(O)c2cn[nH]c2n1` gave an inhibition of -22%.
The inhibition of `C=C[C@@H]1C[C@]1(NC(=O)[C@@H]1C[C@@H](Oc2ncc(OC)c3ccc(Cl)cc23)CN1C(=O)[C@@H](NC(=O)OC(C)(C)C)C(C)(C)C)C(=O)NS(=O)(=O)C1CC1` is reported as -10%.
`CN(C)CCN(Cc1ccccc1)c1ccccn1` gave an inhibition of -9%.
`CC(C)=CCC[C@](C)(O[C@@H]1O[C@H](CO)[C@@H](O)[C@H](O)[C@H]1O)[C@H]1CC[C@]2(C)[C@@H]1[C@H](O)C[C@@H]1[C@@]3(C)CC[C@H](O)C(C)(C)[C@@H]3CC[C@]12C` has an inhibition of -25%.
With `COc1cc2c(cc1OC)[C@@H](Cc1ccc(O)cc1)N(C)CC2` the inhibition was -20%.

Set 3
Compound: COc1ccc2[nH]c3c4[nH]c5ccc(OC)cc5c4c4c(c3c2c1)C(=O)NC4=O
Tested at: 1 µM
Ribosomal protein S6 kinase alpha-5 (RPS6KA5, Homo sapiens, UniProt O75582); competitive binding scan; C-terminal kinase domain 2 — remaining binding: 66%.
The remaining binding was 88% (Tyrosine-protein kinase Tec (TEC, Homo sapiens, UniProt P42680); competitive binding panel; baseline: vehicle).
It gave 100% for remaining binding (Peripheral plasma membrane protein CASK (CASK, Homo sapiens, UniProt O14936); competitive binding panel; baseline: vehicle).
For Dual serine/threonine and tyrosine protein kinase (DSTYK, Homo sapiens, UniProt Q6XUX3); competitive binding panel, measured: RIPK5; baseline: vehicle: remaining binding read 27%.
For Ephrin type-A receptor 2 (EPHA2, Homo sapiens, UniProt P29317); competitive binding panel; baseline: vehicle: remaining binding read 85%.
For Serine/threonine-protein kinase Nek10 (NEK10, Homo sapiens, UniProt Q6ZWH5); competitive binding panel; baseline: vehicle: remaining binding read 93%.
For Myotonin-protein kinase (DMPK, Homo sapiens, UniProt Q09013); competitive binding panel; baseline: vehicle: remaining binding read 56%.
It gave 92% for remaining binding (MAP kinase-interacting serine/threonine-protein kinase 1 (MKNK1, Homo sapiens, UniProt Q9BUB5); competitive binding panel; baseline: vehicle).
The remaining binding was 76% (Serine/threonine-protein kinase Nek5 (NEK5, Homo sapiens, UniProt Q6P3R8); competitive binding panel; baseline: vehicle).
Receptor tyrosine-protein kinase erbB-2 (ERBB2, Homo sapiens, UniProt P04626); competitive binding panel; baseline: vehicle — remaining binding: 100%.
For Interleukin-1 receptor-associated kinase 1 (IRAK1, Homo sapiens, UniProt P51617); competitive binding panel; baseline: vehicle: remaining binding read 94%.

Set 4
SMILES: Cc1c(NC(=O)c2cc(C(N)=O)nc3cc(F)ccc23)c(C(F)(F)F)nn1Cc1ccc(C(C)(C)C)cc1
Tested at: 1 µM
Inhibitor of nuclear factor kappa-B kinase subunit epsilon (IKBKE, Homo sapiens, UniProt Q14164); cell-free assay, competition with immobilised ligand — remaining binding: 100%.
For Death-associated protein kinase 3 (DAPK3, Homo sapiens, UniProt O43293); cell-free assay, competition with immobilised ligand: remaining binding read 76%.
For MAP kinase-activated protein kinase 5 (MAPKAPK5, Homo sapiens, UniProt Q8IW41); cell-free assay, competition with immobilised ligand: remaining binding read 87%.
The remaining binding was 100% (Interferon-induced, double-stranded RNA-activated protein kinase (EIF2AK2, Homo sapiens, UniProt P19525); cell-free assay, competition with immobilised ligand).
Wee1-like protein kinase 2 (WEE2, Homo sapiens, UniProt P0C1S8); cell-free assay, competition with immobilised ligand — remaining binding: 96%.
The remaining binding was 98% (Calcium/calmodulin-dependent protein kinase type II subunit beta (CAMK2B, Homo sapiens, UniProt Q13554); cell-free assay, competition with immobilised ligand).
For Proto-oncogene tyrosine-protein kinase receptor Ret (RET, Homo sapiens, UniProt P07949, M918T); cell-free assay, competition with immobilised ligand: remaining binding read 96%.
The remaining binding was 87% (Serine/threonine-protein kinase SIK1 (SIK1, Homo sapiens, UniProt P57059); competition binding).
For Activin receptor type-2A (ACVR2A, Homo sapiens, UniProt P27037); cell-free assay, competition with immobilised ligand: remaining binding read 100%.
ALK tyrosine kinase receptor (ALK, Homo sapiens, UniProt Q9UM73, C1156Y); cell-free assay, competition with immobilised ligand — remaining binding: 100%.
Ephrin type-B receptor 2 (EPHB2, Homo sapiens, UniProt P29323); cell-free assay, competition with immobilised ligand — remaining binding: 83%.
For Serine/threonine-protein kinase Nek7 (NEK7, Homo sapiens, UniProt Q8TDX7); cell-free assay, competition with immobilised ligand: remaining binding read 100%.
For Tyrosine-protein kinase Lyn (LYN, Homo sapiens, UniProt P07948); cell-free assay, competition with immobilised ligand: remaining binding read 99%.
It gave 100% for remaining binding (Serine/threonine-protein kinase WNK4 (WNK4, Homo sapiens, UniProt Q96J92); cell-free assay, competition with immobilised ligand).
It gave 84% for remaining binding (Calcium/calmodulin-dependent protein kinase type II subunit delta (CAMK2D, Homo sapiens, UniProt Q13557); cell-free assay, competition with immobilised ligand).
For Bone morphogenetic protein receptor type-1A (BMPR1A, Homo sapiens, UniProt P36894); cell-free assay, competition with immobilised ligand: remaining binding read 100%.
It gave 100% for remaining binding (Cyclin-dependent kinase 15 (CDK15, Homo sapiens, UniProt Q96Q40); cell-free assay, competition with immobilised ligand).
For Receptor-type tyrosine-protein kinase FLT3 (FLT3, Homo sapiens, UniProt P36888, ITD); cell-free assay, competition with immobilised ligand: remaining binding read 100%.
It gave 100% for remaining binding (Macrophage colony-stimulating factor 1 receptor, autoinhibited (CSF1R, Homo sapiens, UniProt P07333); cell-free assay, competition with immobilised ligand).
The remaining binding was 100% (Tyrosine-protein kinase ABL1, phosphorylated (ABL1, Homo sapiens, UniProt P00519, Y253F); cell-free assay, competition with immobilised ligand).
Platelet-derived growth factor receptor beta (PDGFRB, Homo sapiens, UniProt P09619); cell-free assay, competition with immobilised ligand — remaining binding: 76%.
Dual serine/threonine and tyrosine protein kinase (DSTYK, Homo sapiens, UniProt Q6XUX3); cell-free assay, competition with immobilised ligand — remaining binding: 89%.
It gave 100% for remaining binding (Receptor-type tyrosine-protein kinase FLT3 (FLT3, Homo sapiens, UniProt P36888, K663Q); cell-free assay, competition with immobilised ligand).
The remaining binding was 100% (Cyclin-dependent kinase 4, with cyclin D3 (CDK4, Homo sapiens, UniProt P11802); cell-free assay, competition with immobilised ligand).
MAP kinase-interacting serine/threonine-protein kinase 1 (MKNK1, Homo sapiens, UniProt Q9BUB5); cell-free assay, competition with immobilised ligand — remaining binding: 100%.

A few entries again (set 4):
For Serine/threonine-protein kinase Nek7 (NEK7, Homo sapiens, UniProt Q8TDX7); cell-free assay, competition with immobilised ligand: remaining binding read 100%.
For Receptor-type tyrosine-protein kinase FLT3 (FLT3, Homo sapiens, UniProt P36888, ITD); cell-free assay, competition with immobilised ligand: remaining binding read 100%.
It gave 100% for remaining binding (Cyclin-dependent kinase 15 (CDK15, Homo sapiens, UniProt Q96Q40); cell-free assay, competition with immobilised ligand).
It gave 100% for remaining binding (Receptor-type tyrosine-protein kinase FLT3 (FLT3, Homo sapiens, UniProt P36888, K663Q); cell-free assay, competition with immobilised ligand).
For Proto-oncogene tyrosine-protein kinase receptor Ret (RET, Homo sapiens, UniProt P07949, M918T); cell-free assay, competition with immobilised ligand: remaining binding read 96%.
Inhibitor of nuclear factor kappa-B kinase subunit epsilon (IKBKE, Homo sapiens, UniProt Q14164); cell-free assay, competition with immobilised ligand — remaining binding: 100%.
It gave 100% for remaining binding (Macrophage colony-stimulating factor 1 receptor, autoinhibited (CSF1R, Homo sapiens, UniProt P07333); cell-free assay, competition with immobilised ligand).
The remaining binding was 100% (Tyrosine-protein kinase ABL1, phosphorylated (ABL1, Homo sapiens, UniProt P00519, Y253F); cell-free assay, competition with immobilised ligand).
The remaining binding was 98% (Calcium/calmodulin-dependent protein kinase type II subunit beta (CAMK2B, Homo sapiens, UniProt Q13554); cell-free assay, competition with immobilised ligand).
The remaining binding was 100% (Cyclin-dependent kinase 4, with cyclin D3 (CDK4, Homo sapiens, UniProt P11802); cell-free assay, competition with immobilised ligand).
The remaining binding was 87% (Serine/threonine-protein kinase SIK1 (SIK1, Homo sapiens, UniProt P57059); competition binding).
